Results from different studies.
Every numbered part comes from another study and shows a few of its results, in no order. Substitutions count along the parent as printed.
Sequence of UniProt P22607 (whole entry, looked up): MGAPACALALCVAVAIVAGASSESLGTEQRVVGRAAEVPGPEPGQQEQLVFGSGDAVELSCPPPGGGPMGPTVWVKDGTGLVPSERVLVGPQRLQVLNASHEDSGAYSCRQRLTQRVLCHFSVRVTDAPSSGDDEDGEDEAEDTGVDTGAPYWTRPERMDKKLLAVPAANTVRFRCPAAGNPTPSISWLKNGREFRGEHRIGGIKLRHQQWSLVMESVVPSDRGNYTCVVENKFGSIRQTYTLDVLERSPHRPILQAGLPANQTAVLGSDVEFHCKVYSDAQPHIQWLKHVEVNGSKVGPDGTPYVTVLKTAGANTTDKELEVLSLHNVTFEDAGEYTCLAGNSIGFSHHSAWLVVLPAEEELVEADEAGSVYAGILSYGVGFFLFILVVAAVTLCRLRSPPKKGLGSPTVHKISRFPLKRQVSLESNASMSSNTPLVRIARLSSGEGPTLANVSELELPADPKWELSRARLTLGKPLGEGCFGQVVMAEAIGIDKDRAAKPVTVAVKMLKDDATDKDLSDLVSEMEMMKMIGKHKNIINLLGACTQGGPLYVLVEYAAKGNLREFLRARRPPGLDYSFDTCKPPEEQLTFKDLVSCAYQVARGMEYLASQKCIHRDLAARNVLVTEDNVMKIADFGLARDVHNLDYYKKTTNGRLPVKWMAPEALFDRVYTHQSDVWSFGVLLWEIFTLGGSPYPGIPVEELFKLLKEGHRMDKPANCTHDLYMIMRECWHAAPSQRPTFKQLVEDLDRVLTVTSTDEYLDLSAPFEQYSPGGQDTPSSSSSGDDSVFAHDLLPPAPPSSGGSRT
Sequence of UniProt Q8WTQ7 (whole entry, looked up): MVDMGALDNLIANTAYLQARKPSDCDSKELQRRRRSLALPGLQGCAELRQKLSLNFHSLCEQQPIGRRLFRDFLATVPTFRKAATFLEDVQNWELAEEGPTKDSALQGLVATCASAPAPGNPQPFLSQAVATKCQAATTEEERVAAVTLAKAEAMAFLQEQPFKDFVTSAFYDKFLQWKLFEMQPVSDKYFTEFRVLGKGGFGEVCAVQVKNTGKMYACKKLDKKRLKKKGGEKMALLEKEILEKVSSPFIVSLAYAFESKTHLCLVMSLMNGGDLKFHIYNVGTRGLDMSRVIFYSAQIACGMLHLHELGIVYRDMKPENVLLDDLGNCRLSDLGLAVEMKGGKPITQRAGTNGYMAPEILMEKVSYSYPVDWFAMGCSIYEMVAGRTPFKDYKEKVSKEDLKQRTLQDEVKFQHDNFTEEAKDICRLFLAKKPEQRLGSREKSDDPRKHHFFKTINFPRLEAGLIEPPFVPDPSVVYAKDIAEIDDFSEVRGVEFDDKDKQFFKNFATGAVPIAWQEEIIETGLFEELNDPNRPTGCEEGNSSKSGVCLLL
Sequence of UniProt Q9H2G2 (whole entry, looked up): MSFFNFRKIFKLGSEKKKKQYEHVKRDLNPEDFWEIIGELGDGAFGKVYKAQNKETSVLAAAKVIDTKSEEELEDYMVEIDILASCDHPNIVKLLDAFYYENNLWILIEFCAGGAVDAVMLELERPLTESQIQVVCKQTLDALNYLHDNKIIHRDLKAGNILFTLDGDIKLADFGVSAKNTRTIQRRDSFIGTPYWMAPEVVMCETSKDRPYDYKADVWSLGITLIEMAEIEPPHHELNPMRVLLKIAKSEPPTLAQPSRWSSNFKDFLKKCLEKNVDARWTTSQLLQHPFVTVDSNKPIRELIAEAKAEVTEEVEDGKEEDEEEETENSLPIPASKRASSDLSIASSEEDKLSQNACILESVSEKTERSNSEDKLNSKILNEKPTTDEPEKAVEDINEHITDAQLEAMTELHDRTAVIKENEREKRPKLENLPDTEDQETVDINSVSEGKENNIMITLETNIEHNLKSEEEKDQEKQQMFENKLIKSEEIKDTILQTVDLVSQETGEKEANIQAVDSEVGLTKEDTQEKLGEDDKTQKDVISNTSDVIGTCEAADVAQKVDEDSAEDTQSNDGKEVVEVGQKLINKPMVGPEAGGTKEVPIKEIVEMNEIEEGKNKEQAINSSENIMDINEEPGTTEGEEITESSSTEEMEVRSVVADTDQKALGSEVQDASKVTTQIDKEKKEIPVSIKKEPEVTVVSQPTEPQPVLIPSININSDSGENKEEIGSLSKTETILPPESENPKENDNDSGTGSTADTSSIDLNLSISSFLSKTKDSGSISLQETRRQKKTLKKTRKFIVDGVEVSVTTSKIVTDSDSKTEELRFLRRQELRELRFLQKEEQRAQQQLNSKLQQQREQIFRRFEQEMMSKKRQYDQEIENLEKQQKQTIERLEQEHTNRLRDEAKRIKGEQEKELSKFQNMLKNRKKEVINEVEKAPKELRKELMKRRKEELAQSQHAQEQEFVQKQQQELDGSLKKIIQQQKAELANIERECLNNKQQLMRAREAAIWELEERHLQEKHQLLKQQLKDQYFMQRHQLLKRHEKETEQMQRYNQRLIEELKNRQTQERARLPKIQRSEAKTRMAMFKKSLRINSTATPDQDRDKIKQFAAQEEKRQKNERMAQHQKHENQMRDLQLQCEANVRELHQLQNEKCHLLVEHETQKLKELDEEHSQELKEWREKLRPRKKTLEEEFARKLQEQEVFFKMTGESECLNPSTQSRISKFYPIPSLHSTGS
Sequence of UniProt P49137 (whole entry, looked up): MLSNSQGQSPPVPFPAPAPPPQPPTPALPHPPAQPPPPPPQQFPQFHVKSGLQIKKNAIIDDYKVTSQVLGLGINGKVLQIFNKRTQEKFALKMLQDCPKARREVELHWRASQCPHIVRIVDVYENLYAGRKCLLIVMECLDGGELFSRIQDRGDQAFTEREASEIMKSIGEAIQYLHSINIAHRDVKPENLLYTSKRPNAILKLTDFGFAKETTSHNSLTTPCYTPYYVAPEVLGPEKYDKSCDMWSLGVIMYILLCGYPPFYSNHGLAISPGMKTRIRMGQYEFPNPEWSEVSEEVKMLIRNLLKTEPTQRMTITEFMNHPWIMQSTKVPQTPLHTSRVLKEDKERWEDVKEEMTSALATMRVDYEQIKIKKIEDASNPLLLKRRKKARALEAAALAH
Sequence of UniProt Q9UL54 (whole entry, looked up): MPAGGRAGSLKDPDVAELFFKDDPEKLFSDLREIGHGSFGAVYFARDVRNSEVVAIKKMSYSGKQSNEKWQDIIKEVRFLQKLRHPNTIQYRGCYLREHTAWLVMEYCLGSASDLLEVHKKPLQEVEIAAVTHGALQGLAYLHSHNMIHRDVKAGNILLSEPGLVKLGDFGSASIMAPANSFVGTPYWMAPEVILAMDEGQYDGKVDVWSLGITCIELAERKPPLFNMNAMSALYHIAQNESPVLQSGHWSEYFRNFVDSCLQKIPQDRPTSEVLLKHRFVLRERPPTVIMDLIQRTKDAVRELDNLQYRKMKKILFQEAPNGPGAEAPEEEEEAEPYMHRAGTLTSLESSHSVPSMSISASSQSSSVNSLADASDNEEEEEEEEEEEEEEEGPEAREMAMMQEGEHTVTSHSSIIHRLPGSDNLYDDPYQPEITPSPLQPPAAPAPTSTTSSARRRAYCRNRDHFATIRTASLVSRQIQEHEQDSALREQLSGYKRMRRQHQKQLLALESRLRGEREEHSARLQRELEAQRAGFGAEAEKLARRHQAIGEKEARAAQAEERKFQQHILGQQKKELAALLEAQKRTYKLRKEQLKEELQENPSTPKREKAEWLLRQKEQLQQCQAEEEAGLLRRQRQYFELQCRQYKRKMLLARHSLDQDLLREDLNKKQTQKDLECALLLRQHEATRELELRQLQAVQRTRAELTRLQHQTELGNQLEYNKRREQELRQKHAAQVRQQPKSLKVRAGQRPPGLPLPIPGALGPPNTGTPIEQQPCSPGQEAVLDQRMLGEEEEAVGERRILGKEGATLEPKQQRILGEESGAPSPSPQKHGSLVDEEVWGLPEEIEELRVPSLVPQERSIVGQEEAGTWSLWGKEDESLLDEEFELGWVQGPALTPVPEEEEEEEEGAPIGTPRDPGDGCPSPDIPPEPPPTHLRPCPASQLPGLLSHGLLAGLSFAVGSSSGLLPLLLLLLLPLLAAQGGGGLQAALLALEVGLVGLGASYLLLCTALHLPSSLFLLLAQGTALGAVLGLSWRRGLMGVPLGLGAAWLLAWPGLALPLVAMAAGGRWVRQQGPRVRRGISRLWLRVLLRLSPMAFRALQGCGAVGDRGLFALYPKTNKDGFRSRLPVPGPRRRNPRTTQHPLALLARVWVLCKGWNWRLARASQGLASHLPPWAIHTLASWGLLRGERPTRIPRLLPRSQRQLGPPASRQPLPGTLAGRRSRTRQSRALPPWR
Sequence of UniProt Q9HC98 (whole entry, looked up): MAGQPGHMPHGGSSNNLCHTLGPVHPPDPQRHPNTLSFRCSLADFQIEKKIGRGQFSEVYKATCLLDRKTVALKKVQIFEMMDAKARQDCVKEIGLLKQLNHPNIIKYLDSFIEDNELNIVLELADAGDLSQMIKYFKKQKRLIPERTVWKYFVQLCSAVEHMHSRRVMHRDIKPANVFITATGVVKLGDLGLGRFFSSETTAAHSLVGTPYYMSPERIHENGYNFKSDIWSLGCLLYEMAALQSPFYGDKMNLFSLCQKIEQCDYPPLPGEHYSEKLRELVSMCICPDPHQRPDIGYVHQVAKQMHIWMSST

Set 1
Target: Eukaryotic initiation factor 4A-I (EIF4A1, Homo sapiens, UniProt P60842, residues 1-406, full length assumed)
Sequence of UniProt P60842 (whole entry, looked up): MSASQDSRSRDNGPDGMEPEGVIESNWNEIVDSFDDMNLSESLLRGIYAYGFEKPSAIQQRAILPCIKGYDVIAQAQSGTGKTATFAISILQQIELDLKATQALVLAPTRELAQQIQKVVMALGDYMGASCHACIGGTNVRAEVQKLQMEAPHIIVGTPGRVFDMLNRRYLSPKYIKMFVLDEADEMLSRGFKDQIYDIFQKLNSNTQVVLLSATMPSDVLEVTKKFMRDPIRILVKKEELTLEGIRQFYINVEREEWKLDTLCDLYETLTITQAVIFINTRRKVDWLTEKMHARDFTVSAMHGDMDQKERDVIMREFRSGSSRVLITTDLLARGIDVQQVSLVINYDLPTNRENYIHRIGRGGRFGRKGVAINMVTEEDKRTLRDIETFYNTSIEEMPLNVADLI
Method: RNA Bind-n-Seq
Form: RNA
Matrix: in vitro
Concentration: 90 pmol
Notes: 4-mer, random 30-nt RNA, single round
Added: 3 µM DMDA-PatA, 2 mM ADP, 2 mM phosphate
Reference: input library
Reading: higher = stronger binding
For `GAGA`, the 4-mer enrichment was 1.55 fold.
The 4-mer enrichment of `GCUC` is reported as 0.51 fold.
The 4-mer enrichment of `CGCG` is reported as 1.35 fold.
`AUUC` has a 4-mer enrichment of 0.691 fold.
For `AUGC`, the 4-mer enrichment was 0.934 fold.
For `AGAC`, the 4-mer enrichment was 0.721 fold.
`UGAG` gave a 4-mer enrichment of 1.58 fold.
`UCGC` has a 4-mer enrichment of 0.602 fold.

Set 2
Structure (SMILES): Cc1cc(Nc2nc(-c3ccccc3)nc3ccccc23)n[nH]1
Effect on: enzyme activity
Mode: inhibitor
Concentration: 0.5 µM
Reference: control
For TEK (Homo sapiens, UniProt Q02763): remaining activity read 104%.
The remaining activity was 95.1% (ULK2 (Homo sapiens, UniProt Q8IYT8)).
The remaining activity was 75.6% (LCK (Homo sapiens, UniProt P06239)).
The remaining activity was 102% (MAP2K2 (Homo sapiens, UniProt P36507)).
The remaining activity was 88% (WEE1 (Homo sapiens, UniProt P30291)).
TAOK2 (Homo sapiens, UniProt Q9UL54) — remaining activity: 90.3%.
For MAPKAPK2 (Homo sapiens, UniProt P49137): remaining activity read 100%.
GRK7 (Homo sapiens, UniProt Q8WTQ7) — remaining activity: 79.2%.
The remaining activity was 93.9% (NEK6 (Homo sapiens, UniProt Q9HC98)).
For FGFR1 (Homo sapiens, UniProt P11362): remaining activity read 48.8%.
The remaining activity was 88.9% (EPHA3 (Homo sapiens, UniProt P29320)).
JAK3 (Homo sapiens, UniProt P52333) — remaining activity: 96.7%.
The remaining activity was 71.7% (FGFR3 (Homo sapiens, UniProt P22607)).
The remaining activity was 42.5% (ABL2 (Homo sapiens, UniProt P42684)).

Set 3
Target: ABI1, truncated, D143A, DHFR fusion (Arabidopsis thaliana)
Method: DHFR PCA, deep sequencing
Matrix: yeast
Notes: methotrexate growth selection, single substitutions
Added: (+)-ABA 4.8 µM
Reference: wild-type fitted maximum
Reading: higher = stronger binding
Starting sequence: PYL1, truncated, DHFR fusion (Arabidopsis thaliana); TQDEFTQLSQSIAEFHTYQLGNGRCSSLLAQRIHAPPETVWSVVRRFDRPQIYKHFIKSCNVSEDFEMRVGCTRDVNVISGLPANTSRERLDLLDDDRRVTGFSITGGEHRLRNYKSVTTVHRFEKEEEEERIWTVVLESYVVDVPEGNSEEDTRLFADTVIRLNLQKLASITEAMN; partner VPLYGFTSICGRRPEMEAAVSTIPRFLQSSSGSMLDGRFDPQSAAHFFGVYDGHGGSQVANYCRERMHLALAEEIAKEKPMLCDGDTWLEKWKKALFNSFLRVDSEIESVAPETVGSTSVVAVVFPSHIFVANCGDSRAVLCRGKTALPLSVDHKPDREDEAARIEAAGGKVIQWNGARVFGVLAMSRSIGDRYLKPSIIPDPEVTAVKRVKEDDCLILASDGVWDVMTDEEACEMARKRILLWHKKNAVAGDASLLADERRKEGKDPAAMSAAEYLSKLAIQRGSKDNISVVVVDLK
Under “relative binding score”, `A158K` is recorded as -4.32%.
Under “relative binding score”, `N114V` is recorded as -14.5%.
`L29I` — result for “relative binding score”: 69.8%.
`T154D` — result for “relative binding score”: -5.04%.
Under “relative binding score”, `D3L` is recorded as 64.2%.
For `Q51N`, “relative binding score” read 43.1%.
Under “relative binding score”, `R24V` is recorded as 61.1%.
For `I79S`, “relative binding score” read 46.2%.

Set 4
SMILES: COc1cc(-c2cn(C3CCc4ccccc4N(CC(F)(F)F)C3=O)nn2)ccc1-n1ccc(C)n1 (stereo not drawn)
Method: competition with immobilised ligand
Concentration: 1 µM
For TRPM6 (Homo sapiens, UniProt Q9BX84); cell-free assay: remaining binding read 100%.
For FGFR3 (Homo sapiens, UniProt P22607); cell-free assay: remaining binding read 100%.
MYLK (Homo sapiens, UniProt Q15746); binding — remaining binding: 80%.
The remaining binding was 97% (TLK2 (Homo sapiens, UniProt Q86UE8); cell-free assay).
The remaining binding was 100% (SLK (Homo sapiens, UniProt Q9H2G2); cell-free assay).
For KIT (Homo sapiens, UniProt P10721, V559D); cell-free assay: remaining binding read 96%.

Repeated from above (set 1):
The 4-mer enrichment of `GCUC` is reported as 0.51 fold.
The 4-mer enrichment of `CGCG` is reported as 1.35 fold.
`AUUC` has a 4-mer enrichment of 0.691 fold.
For `AUGC`, the 4-mer enrichment was 0.934 fold.
